Measurements of several laboratories.
Numbered parts are unrelated; each lists some results of a single study. Substitutions count along the parent as printed. Numbers after ± are the reported error.
Sequence of UniProt Q92887 (whole entry, looked up): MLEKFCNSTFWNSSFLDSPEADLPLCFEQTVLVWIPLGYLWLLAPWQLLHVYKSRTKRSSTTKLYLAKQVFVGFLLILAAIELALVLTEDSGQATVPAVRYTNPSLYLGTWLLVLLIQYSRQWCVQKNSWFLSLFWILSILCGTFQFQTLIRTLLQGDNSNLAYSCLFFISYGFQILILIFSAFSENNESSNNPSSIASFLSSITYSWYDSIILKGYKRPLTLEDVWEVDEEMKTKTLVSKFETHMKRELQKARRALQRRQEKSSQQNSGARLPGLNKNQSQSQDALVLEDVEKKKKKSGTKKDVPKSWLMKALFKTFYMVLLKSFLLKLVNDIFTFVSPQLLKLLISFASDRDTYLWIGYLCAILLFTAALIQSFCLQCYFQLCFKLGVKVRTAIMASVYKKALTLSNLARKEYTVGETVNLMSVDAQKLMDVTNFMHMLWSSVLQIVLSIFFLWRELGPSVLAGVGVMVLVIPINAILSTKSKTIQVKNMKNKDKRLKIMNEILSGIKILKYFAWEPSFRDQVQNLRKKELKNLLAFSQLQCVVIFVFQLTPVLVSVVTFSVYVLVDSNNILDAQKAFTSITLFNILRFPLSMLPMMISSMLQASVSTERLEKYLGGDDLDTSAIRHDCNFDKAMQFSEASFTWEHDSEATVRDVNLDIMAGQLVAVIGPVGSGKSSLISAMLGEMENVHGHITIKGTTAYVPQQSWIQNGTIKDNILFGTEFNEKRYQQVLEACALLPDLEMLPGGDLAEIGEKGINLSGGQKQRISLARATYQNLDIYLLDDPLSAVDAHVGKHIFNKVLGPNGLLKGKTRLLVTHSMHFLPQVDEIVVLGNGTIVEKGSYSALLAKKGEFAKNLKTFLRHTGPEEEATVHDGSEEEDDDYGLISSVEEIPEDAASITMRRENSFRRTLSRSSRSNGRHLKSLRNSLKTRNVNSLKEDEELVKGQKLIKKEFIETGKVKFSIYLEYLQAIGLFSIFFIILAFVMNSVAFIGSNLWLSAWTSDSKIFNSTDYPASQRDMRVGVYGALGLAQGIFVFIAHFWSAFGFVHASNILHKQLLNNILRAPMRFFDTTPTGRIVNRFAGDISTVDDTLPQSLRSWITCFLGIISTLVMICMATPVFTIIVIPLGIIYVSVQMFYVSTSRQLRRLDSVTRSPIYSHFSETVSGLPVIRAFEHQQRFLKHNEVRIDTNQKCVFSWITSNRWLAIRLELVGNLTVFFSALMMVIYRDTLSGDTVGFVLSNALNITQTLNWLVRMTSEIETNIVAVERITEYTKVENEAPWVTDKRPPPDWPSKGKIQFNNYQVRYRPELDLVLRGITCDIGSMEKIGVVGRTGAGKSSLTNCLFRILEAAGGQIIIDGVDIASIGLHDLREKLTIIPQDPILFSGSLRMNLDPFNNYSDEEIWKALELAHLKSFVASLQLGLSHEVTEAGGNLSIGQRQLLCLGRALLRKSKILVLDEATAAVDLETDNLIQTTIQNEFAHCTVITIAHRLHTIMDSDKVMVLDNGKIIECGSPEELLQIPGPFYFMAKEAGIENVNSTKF
Sequence of UniProt O15438 (whole entry, looked up): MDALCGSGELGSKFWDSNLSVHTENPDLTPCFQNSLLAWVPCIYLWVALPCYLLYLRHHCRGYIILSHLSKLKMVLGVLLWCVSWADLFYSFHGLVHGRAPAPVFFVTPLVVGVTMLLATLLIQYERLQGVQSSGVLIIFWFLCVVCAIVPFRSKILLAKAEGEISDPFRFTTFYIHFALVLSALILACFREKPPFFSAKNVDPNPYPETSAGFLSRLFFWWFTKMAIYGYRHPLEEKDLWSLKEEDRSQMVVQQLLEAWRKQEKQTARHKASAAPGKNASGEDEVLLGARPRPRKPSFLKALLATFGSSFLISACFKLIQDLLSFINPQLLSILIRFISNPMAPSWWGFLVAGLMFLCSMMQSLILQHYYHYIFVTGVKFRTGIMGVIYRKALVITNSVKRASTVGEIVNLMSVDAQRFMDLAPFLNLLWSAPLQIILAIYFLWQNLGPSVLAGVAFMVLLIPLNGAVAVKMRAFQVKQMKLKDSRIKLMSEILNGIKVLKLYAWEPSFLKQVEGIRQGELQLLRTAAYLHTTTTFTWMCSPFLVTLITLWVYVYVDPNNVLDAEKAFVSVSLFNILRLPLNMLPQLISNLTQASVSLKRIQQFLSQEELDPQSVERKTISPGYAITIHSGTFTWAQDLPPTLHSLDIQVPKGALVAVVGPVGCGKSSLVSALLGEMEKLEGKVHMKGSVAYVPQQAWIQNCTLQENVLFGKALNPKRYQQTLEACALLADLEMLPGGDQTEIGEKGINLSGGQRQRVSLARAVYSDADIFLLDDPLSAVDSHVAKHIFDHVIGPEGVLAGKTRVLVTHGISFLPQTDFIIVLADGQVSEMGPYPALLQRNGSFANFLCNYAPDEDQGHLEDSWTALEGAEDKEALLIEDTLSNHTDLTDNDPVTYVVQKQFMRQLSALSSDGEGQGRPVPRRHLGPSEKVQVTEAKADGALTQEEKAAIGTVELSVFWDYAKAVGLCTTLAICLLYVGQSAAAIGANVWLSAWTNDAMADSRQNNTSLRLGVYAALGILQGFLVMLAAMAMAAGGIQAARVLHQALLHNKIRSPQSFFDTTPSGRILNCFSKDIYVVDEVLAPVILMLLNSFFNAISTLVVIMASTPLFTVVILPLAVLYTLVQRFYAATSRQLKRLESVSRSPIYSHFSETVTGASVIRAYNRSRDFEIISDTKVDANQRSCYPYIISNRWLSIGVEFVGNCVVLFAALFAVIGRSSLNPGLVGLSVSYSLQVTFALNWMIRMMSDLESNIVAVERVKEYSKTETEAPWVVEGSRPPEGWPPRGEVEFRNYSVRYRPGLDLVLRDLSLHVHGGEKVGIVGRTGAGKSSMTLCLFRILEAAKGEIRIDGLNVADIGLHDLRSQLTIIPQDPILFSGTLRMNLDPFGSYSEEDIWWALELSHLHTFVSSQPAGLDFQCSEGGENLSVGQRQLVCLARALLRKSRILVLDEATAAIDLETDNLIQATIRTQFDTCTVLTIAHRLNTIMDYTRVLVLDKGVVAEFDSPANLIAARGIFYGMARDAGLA
Sequence of UniProt O94956 (whole entry, looked up): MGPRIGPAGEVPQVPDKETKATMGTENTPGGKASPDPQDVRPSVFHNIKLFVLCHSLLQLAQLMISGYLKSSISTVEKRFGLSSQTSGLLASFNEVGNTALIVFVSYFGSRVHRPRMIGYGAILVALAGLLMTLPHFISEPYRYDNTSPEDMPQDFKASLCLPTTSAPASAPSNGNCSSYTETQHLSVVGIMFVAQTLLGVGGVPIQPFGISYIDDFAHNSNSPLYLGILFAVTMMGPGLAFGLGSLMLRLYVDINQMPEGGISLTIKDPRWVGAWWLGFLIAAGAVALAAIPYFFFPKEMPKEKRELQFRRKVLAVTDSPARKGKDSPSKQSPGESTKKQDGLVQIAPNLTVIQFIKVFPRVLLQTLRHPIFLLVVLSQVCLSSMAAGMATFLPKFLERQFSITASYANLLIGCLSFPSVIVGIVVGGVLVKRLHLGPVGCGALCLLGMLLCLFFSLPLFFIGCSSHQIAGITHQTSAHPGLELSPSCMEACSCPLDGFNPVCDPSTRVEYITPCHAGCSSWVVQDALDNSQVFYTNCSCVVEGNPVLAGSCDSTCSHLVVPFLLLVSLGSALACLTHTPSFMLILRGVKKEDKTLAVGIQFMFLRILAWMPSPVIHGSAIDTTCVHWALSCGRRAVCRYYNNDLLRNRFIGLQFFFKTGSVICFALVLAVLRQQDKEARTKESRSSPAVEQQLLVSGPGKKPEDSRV

Set 1
Target: SMN1, full length (human, UniProt Q16637, residues 1-294)
Sequence of UniProt Q16637 (whole entry, looked up): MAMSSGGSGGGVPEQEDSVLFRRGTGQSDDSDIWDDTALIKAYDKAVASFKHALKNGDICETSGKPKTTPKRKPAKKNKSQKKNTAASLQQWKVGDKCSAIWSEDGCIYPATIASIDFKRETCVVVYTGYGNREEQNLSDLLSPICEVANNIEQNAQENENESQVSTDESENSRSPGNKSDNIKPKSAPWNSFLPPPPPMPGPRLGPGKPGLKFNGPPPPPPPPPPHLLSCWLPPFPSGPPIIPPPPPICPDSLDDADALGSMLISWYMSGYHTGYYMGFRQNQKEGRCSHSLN
Technique: nitrocellulose filter binding
Molecule type: RNA
Matrix: in vitro
Tested at: 100 nM
Setting: whole RNA, constant flanks, single concentration, ends assumed
Reference: round 9 selected pool
Direction: higher = stronger binding
| Sequence | relative RNA binding |
| --- | --- |
| GGGCUCACCACGCACGUGCGCGGUAUAGUGGAUUUGGGGGCCUCACCACGGCAAGCU | 117 % of pool |
| GGGCUCACCACGCACGGUGCGUGCUUUCCGUUGUGUUUGGCCUCACCACGGCAAGCU | 87 % of pool |
| GGGCUCACCACGCACGUGCGCGGACUUGCAUUGGACCUGGCCUCACCACGGCAAGCU | 101 % of pool |
| GGGCUCACCACGCACGUGCGCUGGACUAUUACGCGUGAGGCCUCACCACGGCAAGCU | 104 % of pool |

Single results of other studies
P1: RORγt (mouse); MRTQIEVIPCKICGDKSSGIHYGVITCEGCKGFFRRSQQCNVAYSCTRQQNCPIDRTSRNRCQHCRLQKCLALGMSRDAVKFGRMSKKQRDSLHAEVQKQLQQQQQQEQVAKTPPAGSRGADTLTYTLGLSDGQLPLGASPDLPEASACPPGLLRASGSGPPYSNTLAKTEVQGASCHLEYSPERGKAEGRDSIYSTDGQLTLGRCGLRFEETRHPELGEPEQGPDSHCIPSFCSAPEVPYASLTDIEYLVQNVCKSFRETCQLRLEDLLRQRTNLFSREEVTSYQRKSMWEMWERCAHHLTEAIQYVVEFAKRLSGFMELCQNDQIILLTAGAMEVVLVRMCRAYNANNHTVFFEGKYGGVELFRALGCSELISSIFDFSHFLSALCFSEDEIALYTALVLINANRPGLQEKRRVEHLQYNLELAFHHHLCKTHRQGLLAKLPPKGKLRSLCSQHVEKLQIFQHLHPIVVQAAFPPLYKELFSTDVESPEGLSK
| Substance | target or system | assay | test system | conditions | scale | measurement | result |
| --- | --- | --- | --- | --- | --- | --- | --- |
| SLCO2B1 (Homo sapiens, UniProt O94956) | O=C(c1ccc(OCCN2CCCCC2)cc1)c1c(-c2ccc(O)cc2)sc2cc(O[C@@H]3O[C@H](C(=O)O)[C@@H](O)[C@H](O)[C@H]3O)ccc12 | steady-state kinetics | HEK293 cells | pH 7.4, 37 °C | – | Vmax | 0.000155 µmol/min/mg |
| P1 S316A | ITCH | GST pull-down | – | – | reference: unchanged protein | relative binding | 0.6 |
| ABCC3 (Homo sapiens, UniProt O15438) | O=C(c1ccc(OCCN2CCCCC2)cc1)c1c(-c2ccc(O)cc2)sc2cc(O[C@@H]3O[C@H](C(=O)O)[C@@H](O)[C@H](O)[C@H]3O)ccc12 | steady-state kinetics | Sf9 vesicles | pH 7, 37 °C, not purified, added: ATP | – | Vmax | 0.000123 µmol/min/mg |
| AGCTCCAGAAGATAAATTACAGGGGTGGGTGGGAGGGTTTTTGTAGTTAGAGGAAGGGGAGCTGTGGTCTTAACACCAACTAGGATACTATGACCCC (ssDNA) | TAGLN2 1-220 (Homo sapiens) | MST | single-stranded DNA | – | – | Kd | 0.018 ± 0.001 µM |
| ABCC2 (Homo sapiens, UniProt Q92887) | O=C(c1ccc(OCCN2CCCCC2)cc1)c1c(-c2ccc(O[C@@H]3O[C@H](C(=O)O)[C@@H](O)[C@H](O)[C@H]3O)cc2)sc2cc(O[C@@H]3O[C@H](C(=O)O)[C@@H](O)[C@H](O)[C@H]3O)ccc12 | steady-state kinetics | Sf9 vesicles | pH 7, 37 °C, not purified, added: ATP | – | Vmax | 0.00151 µmol/min/mg |

Some of these lines once more (set 1):
| Sequence | relative RNA binding |
| --- | --- |
| GGGCUCACCACGCACGUGCGCUGGACUAUUACGCGUGAGGCCUCACCACGGCAAGCU | 104 % of pool |
